Assay results gathered from unrelated publications.
Every numbered part comes from another study and shows a few of its results, in no order. Several values in a cell are separate wells, animals, samples, runs or records.
Sequence of UniProt P48729 (whole entry, looked up): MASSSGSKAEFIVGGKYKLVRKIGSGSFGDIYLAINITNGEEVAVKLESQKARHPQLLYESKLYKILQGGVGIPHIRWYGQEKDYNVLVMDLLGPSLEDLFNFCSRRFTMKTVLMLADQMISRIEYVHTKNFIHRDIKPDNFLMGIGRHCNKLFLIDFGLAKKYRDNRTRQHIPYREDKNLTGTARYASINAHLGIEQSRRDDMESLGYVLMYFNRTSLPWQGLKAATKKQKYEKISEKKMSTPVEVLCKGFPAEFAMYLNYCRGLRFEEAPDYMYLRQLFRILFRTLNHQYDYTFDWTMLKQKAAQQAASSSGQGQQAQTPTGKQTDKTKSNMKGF
Sequence of UniProt Q00535 (whole entry, looked up): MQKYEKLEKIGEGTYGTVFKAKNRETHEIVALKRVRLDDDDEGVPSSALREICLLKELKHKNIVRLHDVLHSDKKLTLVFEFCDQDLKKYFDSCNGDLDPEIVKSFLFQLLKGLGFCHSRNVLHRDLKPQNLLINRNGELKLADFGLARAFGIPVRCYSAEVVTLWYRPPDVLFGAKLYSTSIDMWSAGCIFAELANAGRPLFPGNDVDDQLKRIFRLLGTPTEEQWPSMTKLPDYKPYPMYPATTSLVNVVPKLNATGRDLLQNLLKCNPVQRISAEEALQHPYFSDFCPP
Sequence of UniProt Q9HC98 (whole entry, looked up): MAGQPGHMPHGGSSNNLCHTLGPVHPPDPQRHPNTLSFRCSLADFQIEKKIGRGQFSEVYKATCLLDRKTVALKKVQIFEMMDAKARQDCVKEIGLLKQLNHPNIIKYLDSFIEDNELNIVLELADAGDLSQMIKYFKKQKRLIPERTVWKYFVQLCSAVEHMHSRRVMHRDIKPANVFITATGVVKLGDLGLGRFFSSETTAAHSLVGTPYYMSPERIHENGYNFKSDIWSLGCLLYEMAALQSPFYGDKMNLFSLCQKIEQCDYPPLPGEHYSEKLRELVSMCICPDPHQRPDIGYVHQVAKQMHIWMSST
Sequence of UniProt Q9UQB9 (whole entry, looked up): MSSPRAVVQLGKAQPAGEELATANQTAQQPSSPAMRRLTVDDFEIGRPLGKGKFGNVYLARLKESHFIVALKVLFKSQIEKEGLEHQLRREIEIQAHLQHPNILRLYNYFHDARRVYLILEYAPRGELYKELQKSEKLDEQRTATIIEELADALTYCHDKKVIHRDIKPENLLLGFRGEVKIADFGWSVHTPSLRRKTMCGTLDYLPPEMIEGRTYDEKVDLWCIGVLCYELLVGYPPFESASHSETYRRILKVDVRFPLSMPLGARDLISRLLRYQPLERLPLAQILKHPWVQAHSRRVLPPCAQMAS

Block 1
SMILES: CN(C1COC1)C(C)(C)/C=C(\C#N)C(=O)N1CCC[C@H]1Cn1nc(-c2ccc(Oc3ccccc3)cc2F)c2c(N)ncnc21
Effect on: kinase activity
| target | concentration | inhibition |
| --- | --- | --- |
| NEK6 (Homo sapiens, UniProt Q9HC98) | 0.1 µM | 5% |
| ROS1 (Homo sapiens, UniProt P08922) | 1 µM | 3% |
| PASK (Homo sapiens, UniProt Q96RG2) | 1 µM | -1% |
| Aurora kinase C (AURKC, Homo sapiens, UniProt Q9UQB9) | 0.1 µM | -2% |
| PRKD1 (Homo sapiens, UniProt Q15139) | 1 µM | -5% |
| Cyclin-dependent kinase 5, with p25 (CDK5, Homo sapiens, UniProt Q00535) | 0.1 µM | 3% |
| NTRK1 (Homo sapiens, UniProt P04629) | 1 µM | 5% |
| FLT3 (Homo sapiens, UniProt P36888) | 1 µM | 48% |

Block 2
Structure (SMILES): CCN1/C(=C/C=C2\CCCC(/C=C/C3=[N+](CC)c4ccccc4C3(C)C)=C2NCCCCCCCCN2CCC(Nc3nc4ccccc4n3Cc3ccc(F)cc3)CC2)C(C)(C)c2ccccc21
Cell line: U-87 MG
Concentration: concentration not given
Baseline: DMSO
| refers to | log2 fold change |
| --- | --- |
| BAMBI mRNA | 1.96 |
| TRAF1 mRNA | 2.38 |
| PLK3 mRNA | 1.18 |
| ZFAND2A mRNA | 2.02 |
| COL7A1 mRNA | -0.963 |
| NEFM mRNA | -3.91 |
| TCTN2 mRNA | -1.28 |
| PAQR8 mRNA | -0.995 |

Block 3
Compound: Cn1cc(-c2cccc(CN3CCC4(CC3)COc3c4ccc4c3CN([C@H]3CCC(=O)NC3=O)C4=O)c2)cn1
Mode: degrader
IKZF4: Zinc finger protein Eos (IKZF4, Homo sapiens, UniProt Q9H2S9)
Sequence of UniProt Q9H2S9 (whole entry, looked up): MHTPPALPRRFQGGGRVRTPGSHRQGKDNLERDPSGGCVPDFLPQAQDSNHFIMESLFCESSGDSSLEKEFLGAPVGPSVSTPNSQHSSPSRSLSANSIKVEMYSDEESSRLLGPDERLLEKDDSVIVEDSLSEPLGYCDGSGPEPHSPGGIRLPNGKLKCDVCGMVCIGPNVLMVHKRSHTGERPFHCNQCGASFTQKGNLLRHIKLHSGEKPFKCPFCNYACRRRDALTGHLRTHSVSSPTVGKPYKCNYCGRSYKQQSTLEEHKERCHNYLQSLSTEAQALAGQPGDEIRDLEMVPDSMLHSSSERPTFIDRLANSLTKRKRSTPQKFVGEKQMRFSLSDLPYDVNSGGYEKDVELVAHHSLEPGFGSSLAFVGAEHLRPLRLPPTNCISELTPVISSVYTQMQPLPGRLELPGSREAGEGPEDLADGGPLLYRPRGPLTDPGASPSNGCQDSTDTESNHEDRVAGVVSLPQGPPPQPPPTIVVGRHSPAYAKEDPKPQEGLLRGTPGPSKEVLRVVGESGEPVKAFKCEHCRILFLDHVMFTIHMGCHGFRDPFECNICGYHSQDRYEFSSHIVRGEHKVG
CRBN/Zinc finger protein Helios: CRBN/Zinc finger protein Helios (Homo sapiens, UniProt Q96SW2+Q9UKS7)
Sequence of UniProt Q96SW2 (whole entry, looked up): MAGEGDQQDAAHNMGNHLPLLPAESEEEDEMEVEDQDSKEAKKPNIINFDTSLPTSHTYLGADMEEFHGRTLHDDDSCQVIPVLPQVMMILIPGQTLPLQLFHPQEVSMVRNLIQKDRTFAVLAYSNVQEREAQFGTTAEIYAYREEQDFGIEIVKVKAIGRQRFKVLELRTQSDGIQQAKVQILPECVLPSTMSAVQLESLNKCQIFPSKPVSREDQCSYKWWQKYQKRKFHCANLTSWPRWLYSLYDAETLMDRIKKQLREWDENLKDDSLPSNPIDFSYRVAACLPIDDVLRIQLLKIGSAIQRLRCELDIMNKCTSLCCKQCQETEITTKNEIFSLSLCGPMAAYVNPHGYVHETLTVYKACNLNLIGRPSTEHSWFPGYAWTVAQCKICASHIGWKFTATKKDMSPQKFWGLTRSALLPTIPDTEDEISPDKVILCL
Sequence of UniProt Q9UKS7 (whole entry, looked up): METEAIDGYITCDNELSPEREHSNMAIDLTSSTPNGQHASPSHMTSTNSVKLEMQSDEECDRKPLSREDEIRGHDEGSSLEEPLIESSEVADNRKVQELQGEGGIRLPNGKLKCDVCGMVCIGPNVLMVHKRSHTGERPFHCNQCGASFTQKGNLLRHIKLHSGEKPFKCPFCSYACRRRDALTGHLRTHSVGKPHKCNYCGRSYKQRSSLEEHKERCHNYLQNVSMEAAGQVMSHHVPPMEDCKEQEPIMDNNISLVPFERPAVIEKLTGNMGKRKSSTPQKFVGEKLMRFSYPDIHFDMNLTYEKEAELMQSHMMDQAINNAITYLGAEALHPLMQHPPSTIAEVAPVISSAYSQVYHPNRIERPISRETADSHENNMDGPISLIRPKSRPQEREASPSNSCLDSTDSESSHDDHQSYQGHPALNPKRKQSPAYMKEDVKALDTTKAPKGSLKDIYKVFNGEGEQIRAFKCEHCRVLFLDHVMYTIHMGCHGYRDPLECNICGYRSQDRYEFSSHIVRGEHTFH
Zinc finger protein Aiolos: Zinc finger protein Aiolos (Homo sapiens, UniProt Q9UKT9)
Sequence of UniProt Q9UKT9 (whole entry, looked up): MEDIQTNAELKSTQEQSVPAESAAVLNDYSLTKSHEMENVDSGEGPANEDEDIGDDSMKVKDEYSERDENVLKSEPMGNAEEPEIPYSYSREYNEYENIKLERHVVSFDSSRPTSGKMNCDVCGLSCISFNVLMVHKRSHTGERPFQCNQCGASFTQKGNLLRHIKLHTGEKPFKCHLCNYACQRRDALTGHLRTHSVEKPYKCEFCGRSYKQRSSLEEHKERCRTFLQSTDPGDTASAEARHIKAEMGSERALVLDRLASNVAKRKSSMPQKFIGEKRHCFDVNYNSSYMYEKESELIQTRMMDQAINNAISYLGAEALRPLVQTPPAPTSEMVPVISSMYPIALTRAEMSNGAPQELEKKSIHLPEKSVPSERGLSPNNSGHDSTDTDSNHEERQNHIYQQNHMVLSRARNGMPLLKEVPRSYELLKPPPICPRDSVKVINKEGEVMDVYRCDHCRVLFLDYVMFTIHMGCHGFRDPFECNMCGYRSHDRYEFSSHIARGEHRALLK
SALL4: Sal-like protein 4 (SALL4, Homo sapiens, UniProt Q9UJQ4)
Sequence of UniProt Q9UJQ4 (whole entry, looked up): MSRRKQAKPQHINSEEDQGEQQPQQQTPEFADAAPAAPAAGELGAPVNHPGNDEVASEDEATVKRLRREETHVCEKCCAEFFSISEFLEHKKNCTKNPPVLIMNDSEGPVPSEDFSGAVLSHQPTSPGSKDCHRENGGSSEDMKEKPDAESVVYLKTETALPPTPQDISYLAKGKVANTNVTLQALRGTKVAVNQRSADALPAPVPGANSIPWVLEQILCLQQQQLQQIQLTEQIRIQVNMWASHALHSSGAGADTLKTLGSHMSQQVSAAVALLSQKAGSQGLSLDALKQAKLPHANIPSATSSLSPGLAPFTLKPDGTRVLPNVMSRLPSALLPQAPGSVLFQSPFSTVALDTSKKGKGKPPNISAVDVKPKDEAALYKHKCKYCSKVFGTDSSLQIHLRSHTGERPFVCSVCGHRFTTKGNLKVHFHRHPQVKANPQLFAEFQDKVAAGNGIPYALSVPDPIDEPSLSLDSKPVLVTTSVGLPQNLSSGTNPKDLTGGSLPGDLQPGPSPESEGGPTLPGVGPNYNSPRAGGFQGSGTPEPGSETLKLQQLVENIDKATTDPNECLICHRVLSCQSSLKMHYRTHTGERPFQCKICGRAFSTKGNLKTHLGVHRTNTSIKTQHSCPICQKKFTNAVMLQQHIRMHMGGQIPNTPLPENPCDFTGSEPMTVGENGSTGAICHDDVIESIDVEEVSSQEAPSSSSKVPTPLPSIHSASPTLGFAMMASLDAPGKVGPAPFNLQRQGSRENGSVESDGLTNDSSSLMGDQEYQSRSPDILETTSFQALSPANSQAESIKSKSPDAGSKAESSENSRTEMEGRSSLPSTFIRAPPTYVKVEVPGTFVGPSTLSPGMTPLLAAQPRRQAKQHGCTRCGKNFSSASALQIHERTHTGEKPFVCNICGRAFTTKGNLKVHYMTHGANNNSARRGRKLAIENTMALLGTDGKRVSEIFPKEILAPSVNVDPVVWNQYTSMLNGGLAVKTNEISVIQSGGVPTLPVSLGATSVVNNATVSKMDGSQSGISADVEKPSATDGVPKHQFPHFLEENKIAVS
GSPT1: Eukaryotic peptide chain release factor GTP-binding subunit ERF3A (GSPT1, Homo sapiens, UniProt P15170)
Sequence of UniProt P15170 (whole entry, looked up): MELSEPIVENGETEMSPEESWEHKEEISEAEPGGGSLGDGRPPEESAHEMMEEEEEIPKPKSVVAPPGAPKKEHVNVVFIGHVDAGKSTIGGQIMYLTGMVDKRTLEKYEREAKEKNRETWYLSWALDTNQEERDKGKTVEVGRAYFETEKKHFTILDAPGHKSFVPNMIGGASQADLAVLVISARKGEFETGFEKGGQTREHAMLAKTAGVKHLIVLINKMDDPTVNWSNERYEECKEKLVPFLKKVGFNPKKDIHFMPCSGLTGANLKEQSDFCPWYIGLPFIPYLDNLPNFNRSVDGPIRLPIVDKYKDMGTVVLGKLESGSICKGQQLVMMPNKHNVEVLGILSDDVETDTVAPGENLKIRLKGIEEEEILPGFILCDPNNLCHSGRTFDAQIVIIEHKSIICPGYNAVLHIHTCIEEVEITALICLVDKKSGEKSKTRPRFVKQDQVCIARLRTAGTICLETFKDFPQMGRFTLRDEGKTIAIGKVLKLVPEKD
| target | technique | cell line | concentration | time | remaining protein |
| --- | --- | --- | --- | --- | --- |
| IKZF4 | HiBiT | HEK293 | 37.04 nM | 6 h | 98.9% and 105% |
| CRBN/Zinc finger protein Helios | flow cytometry | primary human regulatory T cells | 333.3 nM | 3 h | 25.8% and 36% |
| Zinc finger protein Aiolos | HiBiT | HEK293 | 13.72 nM |  | 89.4% and 94.9% |
| SALL4 | HiBiT | HEK293 | 41.15 nM |  | 65.8% and 90% |
| IKZF4 | HiBiT | HEK293 | 0.05081 nM | 6 h | 99.1% and 106% |
| IKZF4 | HiBiT | HEK293 | 12.35 nM | 3 h | 111% and 117% |
| Zinc finger protein Aiolos | HiBiT | HEK293 | 370.37 nM |  | 88.1% and 93.4% |
| CRBN/Zinc finger protein Helios | flow cytometry | primary human regulatory T cells | 0.4572 nM | 6 h | 102% and 98% |
| GSPT1 | HiBiT | HEK293 | 0.5081 nM |  | 86.2% and 98.4% |
| CSNK1A1 (Homo sapiens, UniProt P48729) | HiBiT | HEK293 | 123.5 nM |  | 97.9% and 99.4% |
| CRBN/Zinc finger protein Helios | flow cytometry | primary human regulatory T cells | 4.115 nM | 6 h | 68.7% and 59.6% |
| SALL4 | HiBiT | HEK293 | 370.37 nM |  | 69.6% and 64.6% |
| GSPT1 | HiBiT | HEK293 | 4.572 nM |  | 99.8% and 98% |
| SALL4 | HiBiT | HEK293 | 4.572 nM |  | 82.6% and 87.6% |
| SALL4 | HiBiT | HEK293 | 13.72 nM |  | 76.8% and 74.4% |

Other studies, line by line
| Structure (SMILES) | organism | effect on | strain | sample | concentration | quantity | value |
| --- | --- | --- | --- | --- | --- | --- | --- |
| C=CCN1C(=O)C(O)(C(=O)O)Oc2cc(F)ccc21 (centres unmarked) | Arabidopsis thaliana | hypocotyl length | Col-0 | seedlings | 6.25 µg/mL | inhibition | 2.06% |

Repeated from above (block 3):
| target | technique | cell line | concentration | time | remaining protein |
| --- | --- | --- | --- | --- | --- |
| IKZF4 | HiBiT | HEK293 | 37.04 nM | 6 h | 98.9% and 105% |
| SALL4 | HiBiT | HEK293 | 4.572 nM |  | 82.6% and 87.6% |
| CRBN/Zinc finger protein Helios | flow cytometry | primary human regulatory T cells | 4.115 nM | 6 h | 68.7% and 59.6% |
| Zinc finger protein Aiolos | HiBiT | HEK293 | 370.37 nM |  | 88.1% and 93.4% |
| CRBN/Zinc finger protein Helios | flow cytometry | primary human regulatory T cells | 0.4572 nM | 6 h | 102% and 98% |
